Results of several laboratories.
Numbered parts are unrelated; each lists some results of a single study. Positions count from the first letter of the parent shown.

Block 1
Target: Ras GTPase-activating protein-binding protein 1, RRM domain (G3BP1, Homo sapiens, UniProt Q13283)
UniProt Q13283, sequence (whole entry, looked up): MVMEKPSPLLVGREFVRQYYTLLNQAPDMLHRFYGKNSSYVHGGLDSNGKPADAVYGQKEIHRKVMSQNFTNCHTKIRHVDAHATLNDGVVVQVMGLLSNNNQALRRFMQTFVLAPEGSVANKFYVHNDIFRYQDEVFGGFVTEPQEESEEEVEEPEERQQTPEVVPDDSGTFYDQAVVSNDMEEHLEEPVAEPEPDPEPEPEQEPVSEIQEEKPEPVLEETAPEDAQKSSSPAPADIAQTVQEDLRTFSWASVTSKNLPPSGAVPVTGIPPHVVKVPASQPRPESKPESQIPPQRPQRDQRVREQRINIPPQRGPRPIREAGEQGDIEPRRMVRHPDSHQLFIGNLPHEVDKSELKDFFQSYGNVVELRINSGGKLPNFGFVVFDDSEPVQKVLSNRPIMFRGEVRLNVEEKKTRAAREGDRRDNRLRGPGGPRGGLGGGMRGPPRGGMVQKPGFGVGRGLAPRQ
Method: RNA Bind-n-Seq
Form: RNA
Matrix: in vitro
Tested at: 1 µM
Setting: whole 134-nt RNA, ends assumed
Added: 150 mM KCl
Reference: input library
Direction: higher = stronger binding
For `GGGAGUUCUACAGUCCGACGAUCUCAAGUCCUGUGCUACACAUCGUAUGUACCGAAUCGGGAGGGAAAAAGGGUGGGAAAGUAUUAUGUUACGCCGUUCGGAUCUGCACUUCCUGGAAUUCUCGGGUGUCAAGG`, the log2 enrichment was 0.537.
With `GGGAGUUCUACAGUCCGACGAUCCAAGUCCUGUGCUACACAUCGUAUGUACCGAAUCGGUUUUUGGAAAAAAAGGAGGAAAGUAUUAUGUUACGCCGUUCGGAUCUGCACUUCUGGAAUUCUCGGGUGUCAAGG` the log2 enrichment was -0.201.
With `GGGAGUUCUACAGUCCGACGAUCCAAGUCCUGUGCUACACAUCGUAUGUACCGAAUCGGGCCCGGGCCCGGGCCCGGGAAAGUAUUAUGUUACGCCGUUCGGAUCUGCACUUCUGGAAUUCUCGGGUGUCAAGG` the log2 enrichment was -0.061.
For `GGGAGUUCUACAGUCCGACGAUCAAAAUUUCCAGUACCUUUGUCACAAUCCUAACACAUUAUCGGGAGCAGUGUCUUCCAUAAUGUAUAAAGAACAAGGUAGUUUUUACCUACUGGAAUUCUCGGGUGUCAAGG`, the log2 enrichment was -0.115.
For `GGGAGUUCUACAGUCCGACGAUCAAGUCCUGUGCUACACAUCGUAUGUACCGAAUCGGGGAAAAAGGGGUGGGGUGGGGAAAGUAUUAUGUUACGCCGUUCGGAUCUGCACUUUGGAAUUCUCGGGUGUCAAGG`, the log2 enrichment was 0.684.
For `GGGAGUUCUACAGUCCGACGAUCCAAGUCCUGUGCUACACAUCGUAUGUACCGAAUCGGGUUUUUGGGUGGGAAAGGGAAAGUAUUAUGUUACGCCGUUCGGAUCUGCACUUCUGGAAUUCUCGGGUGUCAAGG`, the log2 enrichment was 0.725.
`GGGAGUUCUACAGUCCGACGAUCUGCGGGACAAAGAAGUGGCCAAUCGAUACUUUACCACUGUCUGUGUGAGAUUACUGCUUGAGAGCAAAGAAAAGAAGAUCAGGGAAUUCAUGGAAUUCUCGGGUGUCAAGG` has a log2 enrichment of -0.00171.
`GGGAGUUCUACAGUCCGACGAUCUAGGGUUCAGGAUAAGUUUGAGGUGCUGAAUUACACAAGCAUUCCUAUCUUUCUCCCGGAAGUCACCAUUGGAGCUCAUCAGACUGACCGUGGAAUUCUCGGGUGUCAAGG` gave a log2 enrichment of -0.168.
`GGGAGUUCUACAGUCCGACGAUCAAGUCCUGUGCUACACAUCGUAUGUACCGAAUCGGGAAAGGGAAAAAGGGAAAGGGAAAGUAUUAUGUUACGCCGUUCGGAUCUGCACUUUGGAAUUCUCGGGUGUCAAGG` gave a log2 enrichment of 0.642.
The log2 enrichment of `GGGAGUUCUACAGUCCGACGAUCUAACUUUAGAGGAGGAUCUGAUGGAUAUGGCAGUGGACGUGGAUUUGGGGAUGGCUAUAAUGGGUAUGGAGGAGGACCUGGACGUGGCAAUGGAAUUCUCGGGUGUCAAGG` is reported as -0.409.

Block 2
Target: ABI1, truncated, D143A, DHFR fusion (Arabidopsis thaliana)
Method: DHFR PCA, deep sequencing
Matrix: yeast
Setting: methotrexate growth selection, single substitutions
Added: (+)-ABA 17 µM
Reference: wild-type fitted maximum
Direction: higher = stronger binding
Starting sequence: PYL1, truncated, DHFR fusion (Arabidopsis thaliana); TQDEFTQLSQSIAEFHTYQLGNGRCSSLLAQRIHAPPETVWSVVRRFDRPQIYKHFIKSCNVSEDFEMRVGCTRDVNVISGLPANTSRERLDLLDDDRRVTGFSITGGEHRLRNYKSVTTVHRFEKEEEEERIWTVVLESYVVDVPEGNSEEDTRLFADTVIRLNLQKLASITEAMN; partner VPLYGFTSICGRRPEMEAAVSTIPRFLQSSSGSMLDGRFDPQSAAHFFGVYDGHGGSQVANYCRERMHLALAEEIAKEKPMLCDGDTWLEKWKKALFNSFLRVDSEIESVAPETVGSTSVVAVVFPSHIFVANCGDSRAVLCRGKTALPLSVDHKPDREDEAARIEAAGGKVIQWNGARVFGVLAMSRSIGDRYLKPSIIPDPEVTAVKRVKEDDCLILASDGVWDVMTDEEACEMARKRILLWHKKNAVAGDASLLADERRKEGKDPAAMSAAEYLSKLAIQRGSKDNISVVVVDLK
`R98D` — result for “relative binding score”: 29.3%.
For `F47A`, “relative binding score” read -5.13%.
`T120F`: “relative binding score” -3.19%.
For `A84Q`, “relative binding score” read 4.28%.
`S104K`: “relative binding score” 8.12%.
For `R90L`, “relative binding score” read 22.8%.
Under “relative binding score”, `L164W` is recorded as 64.4%.
`G102V`: “relative binding score” 5.86%.
Under “relative binding score”, `F66V` is recorded as 65.2%.
Under “relative binding score”, `L164I` is recorded as 79.8%.
Under “relative binding score”, `E4Q` is recorded as 73.7%.
For `R32H`, “relative binding score” read 80.1%.
For `I162M`, “relative binding score” read 9.7%.
`Y141H` — result for “relative binding score”: 16.2%.
`L29P` — result for “relative binding score”: 15.1%.
`E174P`: “relative binding score” 27.4%.
`V76L`: “relative binding score” 73.8%.
Under “relative binding score”, `R98Q` is recorded as 76.4%.
`T135W` — result for “relative binding score”: 0.508%.
For `V161P`, “relative binding score” read -15.1%.
`V143F`: “relative binding score” -7.06%.
For `D92F`, “relative binding score” read 6.85%.
For `R123F`, “relative binding score” read 36.7%.
`V43T`: “relative binding score” 48.6%.
`H110N`: “relative binding score” 80.4%.

Block 3
Target: CCNE2, cyclin fold, Cln2 fusion (human)
Method: yeast growth competition, sequencing
Matrix: yeast
Setting: strong parent motif
Reference: not given
Direction: higher = stronger binding
Starting sequence: CDC25A docking peptide (human); PPHRRRLLFACSP; partner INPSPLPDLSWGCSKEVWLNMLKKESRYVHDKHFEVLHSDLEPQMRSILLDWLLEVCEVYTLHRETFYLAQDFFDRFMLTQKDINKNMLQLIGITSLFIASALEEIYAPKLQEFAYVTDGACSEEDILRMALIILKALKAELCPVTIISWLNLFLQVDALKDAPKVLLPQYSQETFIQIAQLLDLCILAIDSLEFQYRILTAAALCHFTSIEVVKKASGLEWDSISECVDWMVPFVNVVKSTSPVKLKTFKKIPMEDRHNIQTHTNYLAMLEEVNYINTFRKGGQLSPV
`PPHRRRRLFACSP [L7R]`: “normalised enrichment score” 1.3.
`CPHRRRLLFACSP [P1C]`: “normalised enrichment score” 1.05.
`PPHRRRLLFACRP [S12R]` — result for “normalised enrichment score”: 1.59.
Under “normalised enrichment score”, `PPHRRRLLFACSR [P13R]` is recorded as 0.827.
`PPHRRRLLFWCSP [A10W]` — result for “normalised enrichment score”: 1.32.
`PPERRRLLFACSP [H3E]`: “normalised enrichment score” 0.983.
For `PPHRCRLLFACSP [R5C]`, “normalised enrichment score” read 0.998.
`PPHRRRLNFACSP [L8N]`: “normalised enrichment score” 3.59.
`PPHVRRLLFACSP [R4V]` — result for “normalised enrichment score”: 4.75.
For `PPWRRRLLFACSP [H3W]`, “normalised enrichment score” read 2.26.
For `PPHRRRLLFAESP [C11E]`, “normalised enrichment score” read 2.82.
`PPTRRRLLFACSP [H3T]` — result for “normalised enrichment score”: 2.49.
Under “normalised enrichment score”, `PPHRRRLLFCCSP [A10C]` is recorded as 1.65.
`PPHRRHLLFACSP [R6H]`: “normalised enrichment score” 0.653.
`PPHRRFLLFACSP [R6F]`: “normalised enrichment score” 0.425.
Under “normalised enrichment score”, `PPHRRRLLFACSH [P13H]` is recorded as 1.93.
For `PPHRRRLLFMCSP [A10M]`, “normalised enrichment score” read 2.32.
`PEHRRRLLFACSP [P2E]` — result for “normalised enrichment score”: 1.51.

Block 4
Target: RNA binding protein fox-1 homolog 2, RRM domain, GST-SBP tag (RBFOX2, Homo sapiens, UniProt O43251-10, residues 100-194)
Method: RNA Bind-n-Seq
Form: RNA
Matrix: in vitro
Tested at: 365 nM
Setting: natural RNA segment, single round, ends assumed
Reference: no-protein control
Direction: higher = stronger binding
Construct (chain): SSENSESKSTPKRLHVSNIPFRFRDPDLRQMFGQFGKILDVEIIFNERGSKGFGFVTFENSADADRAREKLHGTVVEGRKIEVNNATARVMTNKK
Under “RBNS enrichment (R)”, `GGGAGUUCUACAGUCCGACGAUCUAUUCUGUAUGUGGGUCCCAGACCCUGAUCAGGAAAUGAGCCUCAUGUGUGUCGUUAACAUUUAUAUAUUUCCAUUCAAAAUAUGUAUUCAGUGUUUAUUUCCUCAAAACUGGAAUUCUCGGGUGCCAA` is recorded as 0.322.
`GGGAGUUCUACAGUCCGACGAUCAGAGAAAGAAAUGCUGUGAGCACAUGACAAAAUAAAAUCAAAUAAAAUGGAUGAUUCAGCUUAAGUGACUUUCUCCCCCCUCUCCCUUCUGAAUUCAGAUGAGAGUCACGUGGAAUUCUCGGGUGCCAA`: “RBNS enrichment (R)” 0.355.
`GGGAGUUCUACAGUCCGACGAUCUGAAAUCUUUUUCUCGUUUAGUUGCUCUGUGGGAAAUGUGAGGAAGCCUAAGUUUGUAUUUGUAAAUUUCUUAUGCCAUCCUCUAGUCAAAUUUUUUUUCAUUGUUUAAAUGGAAUUCUCGGGUGCCAA` — result for “RBNS enrichment (R)”: 1.01.
For `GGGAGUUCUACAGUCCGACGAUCCUCGCCAGUCUCUGUGAGCCUAGGCCCUGAGCUGGGGAGGUGGGGAAGAUUCGGGCAUGUGAGUGCCCCCAGAACUGUCCUGGCUCCUUCCGUAUUAAACGCAUUUGCAUUGGAAUUCUCGGGUGCCAA`, “RBNS enrichment (R)” read 0.627.
Under “RBNS enrichment (R)”, `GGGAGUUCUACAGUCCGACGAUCUUUCAUCUGUGGCUCUUUGCUAAAAAUCCGUAGAUCUGAGCUGCAGGUAAACGGAAGGGGCGUCGUUGUCUUUAAGGUGAGGCGGCCAAGCACUGCUCCGUAUAUAAGUUUGGAAUUCUCGGGUGCCAA` is recorded as 0.303.
For `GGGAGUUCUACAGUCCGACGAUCGGAGUCUGCCACUUGUCAAAGAAGGUGCUGAUCCUAAGAAUUUUUCAUUCUCAGAAUUCGGUGUGCUGCCAACUUGAUGUUCCACCUGCCACAAACCACCAGGACUGAAAUGGAAUUCUCGGGUGCCAA`, “RBNS enrichment (R)” read 0.328.
`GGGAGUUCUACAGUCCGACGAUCCCUAAGUAAUAGGAGUCUCUCGGCUUCUUGCGUGUAGCCUCACAAGUUCUGAGAGAUGGGGAGCGGCCCCCAGCCCCCGCCCCAUCCUGUCAGGUUGGUGCGGAAGGGCUUGGAAUUCUCGGGUGCCAA` — result for “RBNS enrichment (R)”: 0.364.
`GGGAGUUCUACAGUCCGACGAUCUUAGAUGUUUAUAUACCUUUUGAAGAGACCCAGUAGCCCAUAGCACAAAUCUUGUGGAAAUCCGAUAUGUUUUAAUGUGGCUACCUAGGUUUAAGGUUCACGUUAGUCCCUGGAAUUCUCGGGUGCCAA` — result for “RBNS enrichment (R)”: 0.527.
`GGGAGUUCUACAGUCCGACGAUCGGUGAGCGCCACAUGAGUGUAGAGGCACUAUAUGACGUAGUGUACUGAGCAUGCAACGCUGCUGCCGUCCUUGUCUGUGGUUUCAGUUUGUAAAACUGCUAAGCCAUUCUUGGAAUUCUCGGGUGCCAA`: “RBNS enrichment (R)” 0.311.

Excerpt of the above (block 3):
`PPHRRRRLFACSP [L7R]`: “normalised enrichment score” 1.3.
`CPHRRRLLFACSP [P1C]`: “normalised enrichment score” 1.05.
`PPHRRRLLFACRP [S12R]` — result for “normalised enrichment score”: 1.59.
Under “normalised enrichment score”, `PPHRRRLLFACSR [P13R]` is recorded as 0.827.
`PPHRRRLLFWCSP [A10W]` — result for “normalised enrichment score”: 1.32.
`PPERRRLLFACSP [H3E]`: “normalised enrichment score” 0.983.
For `PPHRCRLLFACSP [R5C]`, “normalised enrichment score” read 0.998.
`PPHRRRLNFACSP [L8N]`: “normalised enrichment score” 3.59.
